Published values gathered from unrelated publications.
A part holds a random share of what one study measured. Changes are numbered by the printed parent chain.

Sample 1 — technique: competition protein-binding microarray; molecule type: double-stranded DNA, one strand shown; matrix: in vitro; tested at: 2 µM; added: Cbf1 competitor, 0.05 µM; direction: higher = stronger binding; constant ends, left off below: … GTCTTGATTCGCTTGACGCTGCTG
Target: Phosphate system positive regulatory protein PHO4, full length, GST-tagged (PHO4, Saccharomyces cerevisiae, UniProt P07270, residues 1-312)
Setting: whole 60-bp probe, lowest competitor level
Construct (chain): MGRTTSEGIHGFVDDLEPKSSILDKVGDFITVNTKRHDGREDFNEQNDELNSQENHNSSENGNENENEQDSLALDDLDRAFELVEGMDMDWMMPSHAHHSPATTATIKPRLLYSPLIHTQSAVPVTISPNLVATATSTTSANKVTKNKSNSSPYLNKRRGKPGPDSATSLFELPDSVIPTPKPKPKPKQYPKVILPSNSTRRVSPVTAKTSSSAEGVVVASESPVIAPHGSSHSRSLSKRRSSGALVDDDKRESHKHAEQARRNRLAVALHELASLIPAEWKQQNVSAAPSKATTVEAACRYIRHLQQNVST
| Sequence | fluorescence intensity [a.u.] |
| --- | --- |
| TCTGCATATTTGTAAAACGTGCAAAAAAGTAAAGAA | 13700 |
| CCTTTCCAGATGGCTCACATGTCCGGTCGTCCTCCA | 7370 |
| TTGGCGCACTTACAGGACCTGACGACTTTGCCCCCG | 3360 |
| CGGGGTTAAGTTTGGTTCGTGGGTGGCTTGCAGCAG | 6020 |
| CCGGCGACCTCCAAGCGCGTGCCAGGTGGGCCCCTC | 10800 |
| CTTCTGTAAATTTGGCAGGTGGGTGGACGCGCCCCG | 6100 |
| TGCGCAACAACTTGTCACTACACTTTATGTCTAGAA | 3320 |
| TGACGGCGAAGCTCGCACGTGCGCAGCCCGGGGGCG | 18600 |
| CGTTGGTCTTTTTGGTGAAACGGAGTACTGGCTTGC | 3130 |
| AAAGATTTGCCTTTGCCCGTGCCGAAAGCAGGCTGT | 7430 |
| TGCGCAACAACTTGACATGTGGGTGTATGTCTAGAA | 11200 |
| CATACCCAACCTTGGCGCGTGGGTGAAGATATTTGT | 13000 |

Sample 2 — technique: DHFR PCA, deep sequencing; matrix: yeast; added: (+)-ABA 0.39 µM; reference: wild-type fitted maximum; direction: higher = stronger binding
Target: ABI1, truncated, D143A, DHFR fusion (Arabidopsis thaliana)
Setting: methotrexate growth selection, single substitutions
Parent: PYL1, truncated, DHFR fusion (Arabidopsis thaliana); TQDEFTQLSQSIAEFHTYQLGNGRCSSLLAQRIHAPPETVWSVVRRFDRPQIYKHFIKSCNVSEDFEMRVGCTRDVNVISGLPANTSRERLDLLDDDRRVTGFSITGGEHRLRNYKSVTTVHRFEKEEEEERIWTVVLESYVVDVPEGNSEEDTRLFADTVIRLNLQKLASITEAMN
| Change | relative binding score [%] |
| --- | --- |
| D159V | -10.3 |
| D48M | -11.4 |
| G71A | -4.3 |
| T86A | 16 |
| F124S | 11.6 |
| N22E | 62.9 |
| S27E | -6.93 |
| E14W | 2.33 |
| F157V | 4.97 |
| A30Y | 30.2 |
| E174C | -13.2 |
| I12C | 1.49 |
| V118E | 2.63 |
| A175R | 44.2 |
| A13S | 41.4 |
| A13P | 0.795 |
| S59I | 10 |
| Y53M | -5.41 |

Sample 3 — technique: protein binding microarray; molecule type: double-stranded DNA, one strand shown; matrix: in vitro; tested at: not given; reference: not given; direction: higher = stronger binding
Target: Histone acetyltransferase KAT6A, both winged helices, GST fusion (KAT6A, Homo sapiens, UniProt Q92794, residues 1-181)
Setting: 8-mer, flanks averaged, mean of 2 arrays, mostly near background
Target sequence (chain): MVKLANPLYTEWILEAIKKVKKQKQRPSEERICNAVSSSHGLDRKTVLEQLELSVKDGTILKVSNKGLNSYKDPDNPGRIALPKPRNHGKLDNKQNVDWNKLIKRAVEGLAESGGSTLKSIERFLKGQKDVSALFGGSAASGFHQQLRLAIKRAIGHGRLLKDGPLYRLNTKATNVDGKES
| Sequence | E-score |
| --- | --- |
| ACTTTCTC | -0.109 |
| ATCACATG | 0.0329 |
| AGGACTAC | -0.0473 |
| ATTAACGA | 0.00752 |
| ACGCCGTA | 0.286 |
| AGCAGGCA | -0.124 |
| AGCCCTCA | -0.0971 |
| CGGTGACG | 0.137 |
| TCCCAAAA | -0.0798 |
| AGTGGAAA | -0.116 |
| AAAGAGTA | -0.112 |
| ATTCTTGG | -0.0407 |
| CACTTTAA | -0.11 |
| AGCAATGG | -0.205 |
| CTGGATAA | -0.0567 |
| ATTATTAC | 0.0377 |
| AGATTGTA | -0.246 |
| GCACACCC | -0.085 |
| GATCCGAA | -0.119 |
| CATGCATA | -0.0475 |
| AATCCAGT | -0.111 |
| CCGACACC | 0.181 |

Sample 4 — technique: protein-binding microarray; molecule type: hairpin DNA; matrix: in vitro; tested at: not given; reference: not given; direction: higher = stronger binding; constant ends, left off below: GCAGGCCC … GGGCCTGCACACTCTTTCCCTACACGAC
Target: Transcription factor SOX-2, HMG box (SOX2, Homo sapiens, UniProt P48431, residues 37-118)
Sequence of UniProt P48431 (37-118, looked up): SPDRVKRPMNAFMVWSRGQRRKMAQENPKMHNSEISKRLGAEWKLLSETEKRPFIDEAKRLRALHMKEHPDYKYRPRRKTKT
Setting: whole hairpin DNA, median over replicate spots
| Sequence | median fluorescence |
| --- | --- |
| ACAATGGGCCTCCTGGCCCATTGT (5mC at 8) | 3530 a.u. |
| ACAATGGGCCTCCTGGCCCATTGT | 3080 a.u. |
| ACACGGGGCCTCCTGGCCCCGTGT (5mC at 12) | 2300 a.u. |
| CGAATGGGCCTCCTGGCCCATTCG (5mC at 31) | 2390 a.u. |
| GCAATGGGCCTCCTGGCCCATTGC (5mC at 8 32) | 2470 a.u. |
| CAAATGGGCCTCCTGGCCCATTTG (5mC at 9) | 2380 a.u. |
| ACCATGGGCCTCCTGGCCCATGGT | 2460 a.u. |
| ACAACGGGCCTCCTGGCCCGTTGT (5mC at 27) | 2410 a.u. |
| ACACTGGGCCTCCTGGCCCAGTGT | 2390 a.u. |
| ACAATCCGCCTCCTGGCGGATTGT | 2640 a.u. |
| ACAATAGGCCTCCTGGCCTATTGT | 3750 a.u. |

Sample 5 — target: CCNB1, cyclin fold, Cln2 fusion (human); technique: yeast growth competition, sequencing; matrix: yeast; setting: strong parent motif; reference: not given; direction: higher = stronger binding
Parent: PKN2 docking peptide (human); DSTVTKLDFDLEP; partner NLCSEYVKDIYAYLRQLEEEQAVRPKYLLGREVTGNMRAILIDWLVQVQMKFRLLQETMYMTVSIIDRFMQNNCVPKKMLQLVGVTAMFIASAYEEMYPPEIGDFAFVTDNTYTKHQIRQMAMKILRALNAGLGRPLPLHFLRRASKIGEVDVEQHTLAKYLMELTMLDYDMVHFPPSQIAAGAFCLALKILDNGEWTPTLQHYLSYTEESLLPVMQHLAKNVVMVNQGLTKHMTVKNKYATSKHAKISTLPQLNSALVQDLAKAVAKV
| Change | normalised enrichment score |
| --- | --- |
| E12A | 3.46 |
| T3A | 3.7 |
| T5A | 2.96 |
| D1A | 2.63 |
| V4A | 1.22 |
| S2A | 3.9 |

Sample 6 — technique: RNA Bind-n-Seq; molecule type: RNA; matrix: in vitro; tested at: 100 nM; reference: input RNA pool; direction: higher = stronger binding
Target: RING finger protein unkempt homolog, zinc fingers 1-6, SBP tag (UNK, Homo sapiens, UniProt Q9C0B0, residues 30-357)
Sequence of UniProt Q9C0B0 (30-357, looked up): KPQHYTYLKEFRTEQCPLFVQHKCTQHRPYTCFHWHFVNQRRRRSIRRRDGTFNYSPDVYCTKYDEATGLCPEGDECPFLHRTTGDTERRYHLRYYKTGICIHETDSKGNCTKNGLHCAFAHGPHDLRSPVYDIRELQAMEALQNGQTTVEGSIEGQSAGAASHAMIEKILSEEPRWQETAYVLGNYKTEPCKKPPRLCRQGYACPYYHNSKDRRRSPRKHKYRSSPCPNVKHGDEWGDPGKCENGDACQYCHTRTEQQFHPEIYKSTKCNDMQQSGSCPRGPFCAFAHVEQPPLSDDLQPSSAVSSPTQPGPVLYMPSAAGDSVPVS
Setting: RNA with constant flanks, vertebrate orthologous sites, ends assumed
Constant ends, left off below: GGGAGUUCUACAGUCCGACGAUC … CAACAGAGGAUUGAGCAUCA
| Sequence | bound/input enrichment |
| --- | --- |
| UCCCAGCACUUUGAUAAAAAGCGUGGACUGGUUGCUCGUAUUUUCCUUAUUCUUUUUAAUUAGUUUUAUUAUGUAUGCUACCAUUCGAACUGAGAGUAUUCGGUGGCUAAUUCCAGGACA | 3.23 ratio |
| CUCAGUCCCCUGGGCCGGGACACUUGUUUUUUAACAUCUUGAAAUUUAACUCUGUGCUUGUAGAAGACUGUAACCUUUUUGUCUUUUUUUUUUUUUUUUUUUUUAAACAAUCUCCACCUC | 2.21 ratio |
| GUGCAAGGAGAUUAUUCCAACUAGUGAAUUUAUUAACAGUAAGUUGACAGCAAAAGCAAAUAGGCAGCUUCAAGAUCCUUUAGUAAUCAUGACAGGAAACAUCCCAACAUGGCUCACUGA | 0.908 ratio |
| CAGUUUGUAUGUACAUUAUUCAUAUUCCUCUCUGUUGUGUUUCGGGGGGAAAAGACAUUUUAGCCUUUUUUAAAAGUUACUGAUUUAAUUUCAUGUUAUUUGCUUGCAUGAAGUUGCCCU | 1.36 ratio |
| UAUAAUUAUGAAAAUCUAAAGGAUUUUUAAUGUUUAAUUUCCCCCAGCAUAUAUAUUAAGACCUCUUUUUCCAGGCCGAUCAUUCAGAGUGUGCGAGUGUGUGUGCACAUGUUACAAAGA | 0.694 ratio |
| AAUCAGUAGAAUUACAUAAUACUAAAGUUGCAGUUGAAAGAAUAUCCAAGUAUGUGUUGGUAGUUACUAAAAGAAUUAUAGCUGUUAUUGCCUUGUAUUUAUAGCCCUUGUUUCAGGUUU | 0.948 ratio |
| UUUAAAGUCAUUUUUUCACAUUUCCUGUAAAUAAUGGAUAAUCAUUUUUAUUUUAUUUUUAAGUGCUGUUUUAACAAUGUGGAUAGACCAUAAAUGUACUUGCUGAAUUCAUUCAUUUUU | 0.429 ratio |

Some of these lines once more (sample 3):
| Sequence | E-score |
| --- | --- |
| AGCAGGCA | -0.124 |
| AGCCCTCA | -0.0971 |
| CGGTGACG | 0.137 |
| TCCCAAAA | -0.0798 |
| AGTGGAAA | -0.116 |
| AAAGAGTA | -0.112 |
| ATTCTTGG | -0.0407 |
| CACTTTAA | -0.11 |
| AGCAATGG | -0.205 |
